Results gathered from unrelated publications.
Numbered parts are unrelated; each lists some results of a single study. Positions count from the first letter of the parent shown.

Study 1 — target: CCNA1, cyclin fold, Cln2 fusion (human); technique: yeast growth competition, sequencing; matrix: yeast; notes: weak parent motif; relative to: not given; direction: higher = stronger binding; quantity: normalised enrichment score
Starting sequence: BORA docking peptide (human); SSLRRKLFLDGNG; partner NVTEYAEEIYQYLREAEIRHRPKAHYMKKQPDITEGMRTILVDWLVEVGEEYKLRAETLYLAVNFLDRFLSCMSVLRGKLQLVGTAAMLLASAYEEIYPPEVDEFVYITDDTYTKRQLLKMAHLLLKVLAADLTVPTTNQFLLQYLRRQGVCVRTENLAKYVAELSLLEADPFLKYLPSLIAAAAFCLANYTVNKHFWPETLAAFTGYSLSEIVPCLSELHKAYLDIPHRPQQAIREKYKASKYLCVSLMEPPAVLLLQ
Variant = SSARRKLFLDGNG [L3A]; result = 0.185
Variant = SSLRRKLFLDANG [G11A]; result = 0.163
Variant = SSLRRKLALDGNG [F8A]; result = 0.533
Variant = SSLRKKLFFDGNG [R5K L9F]; result = 0.202
Variant = SSLRRKLFLAGNG [D10A]; result = -0.137
Variant = SSLRRKLFFDGNG [L9F]; result = 0.098
Variant = SSLRRKLFLDGNA [G13A]; result = 0.208
Variant = SSLRAKLFLDGNG [R5A]; result = 0.301

Study 2 — technique: DHFR PCA, deep sequencing; matrix: yeast; added: (+)-ABA 200 µM; relative to: wild-type fitted maximum; direction: higher = stronger binding; quantity: relative binding score
Target: ABI1, truncated, D143A, DHFR fusion (Arabidopsis thaliana)
Notes: methotrexate growth selection, single substitutions
Starting sequence: PYL1, truncated, DHFR fusion (Arabidopsis thaliana); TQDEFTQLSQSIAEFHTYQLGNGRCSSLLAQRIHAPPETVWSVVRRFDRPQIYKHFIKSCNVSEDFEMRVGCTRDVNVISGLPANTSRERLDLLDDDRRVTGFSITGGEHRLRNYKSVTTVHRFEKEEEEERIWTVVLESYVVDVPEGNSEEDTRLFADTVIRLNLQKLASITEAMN; partner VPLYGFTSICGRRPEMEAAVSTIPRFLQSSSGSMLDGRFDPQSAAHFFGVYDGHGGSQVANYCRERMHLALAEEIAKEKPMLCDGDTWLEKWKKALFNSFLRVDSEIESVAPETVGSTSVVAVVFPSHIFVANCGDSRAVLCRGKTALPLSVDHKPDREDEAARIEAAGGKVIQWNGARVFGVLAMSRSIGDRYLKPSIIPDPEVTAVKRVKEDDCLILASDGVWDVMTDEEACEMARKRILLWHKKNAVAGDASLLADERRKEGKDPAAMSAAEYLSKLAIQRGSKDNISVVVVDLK
Variant = H122K; result = 15%
Variant = R99G; result = 77.5%
Variant = C25Y; result = 26.7%
Variant = Q2G; result = 90.4%
Variant = S11A; result = 90.7%

Study 3 — technique: RNA Bind-n-Seq; form: RNA; matrix: in vitro; concentration: 365 nM; relative to: no-protein control; direction: higher = stronger binding; quantity: RBNS enrichment (R)
Target: RNA binding protein fox-1 homolog 2, RRM domain, GST-SBP tag (RBFOX2, Homo sapiens, UniProt O43251-10, residues 100-194)
Notes: natural RNA segment, single round, ends assumed
Target sequence (chain): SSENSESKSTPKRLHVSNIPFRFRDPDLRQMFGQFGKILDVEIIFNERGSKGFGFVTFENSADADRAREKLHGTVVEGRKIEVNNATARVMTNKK
Strand = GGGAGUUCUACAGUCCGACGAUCUAAAGAGGUACAAUAAGCAGCUAUUCACAGACACCUGGGUGGUUCCUAUACCUGCCCAGGACAUCUUAAUAACCCCAGGGCUGGGGACUCCAUGGCCACACUCCUGUGAAUGGAAUUCUCGGGUGCCAA; result = 0.313
Strand = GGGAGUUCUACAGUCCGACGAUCUUUCACCACUGGUCAAAUUUUAACCAUUAAAUUGCCAUUCACUUUUAGAAUCUUGUAUUUAAGUUUUGAUUUUCAAAUGUUCUGCUUCAUGUGUCUGUGAAGAAUUGUACUGGAAUUCUCGGGUGCCAA; result = 0.599
Strand = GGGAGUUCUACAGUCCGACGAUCGGUUACUCUUAGAAUCGCAUGCUGUAGAAAUGCUCUAAAGUGCAUAUAGGACUCAGUCCUUAGAUGUUCUUUUUAUUUUAAGAAAUAACCUCUUCAAGUUGUAACCGUGGUGGAAUUCUCGGGUGCCAA; result = 1.29
Strand = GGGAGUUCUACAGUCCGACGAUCGCAGGCACUCUGCAGAGGAUGGAAGAGGAGACCCCUGUUCUGGGCUUAUUUAUUAAUCUUGAUUUAAUACGUUCUCUUCCCAAGCUGGAAGAUCCUCUUUCCAGGCCUCUUGGAAUUCUCGGGUGCCAA; result = 0.876
Strand = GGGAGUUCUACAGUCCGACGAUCGGAUGGAAAAAGCUGAAGCAAGUGGCUGUUCUCUGAUCAGGCGGGGGAUGCCUCUUUUCCUCGCGAGGCGGCCAUCCUCUCUGGACACUGGCCUCGCCGUCUCUUUCCUCUGGAAUUCUCGGGUGCCAA; result = 0.659
Strand = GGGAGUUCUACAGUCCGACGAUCGCAGGAUGCAGCUCUGGCCCCCGAGUUCCUGGCCGUGCUGAGUACAGCGUGUCCCCAGACGCAGACCUCAAGGGCCUUCUCCAGCGGCUGGAGACAGCCUGAAAAGCAAAUGGAAUUCUCGGGUGCCAA; result = 0.381

Other studies, line by line
Molecule = PhoQ, residues 284 288 289 292 302 303 ALVSVA; target = PhoP, residues 12 14 15 18 19 LYHSL (Escherichia coli, UniProt P23836); assay = Sort-seq, measured: YFP reporter; test system = E. coli; setting = PhoQ-PhoP variant library, added: 10 µM Mg2+; how to read = relative to: high Mg2+ state, higher = stronger signaling; quantity = fold induction; result = 4.87
